Published values of several laboratories.
Lines come from different studies, so protocols differ. Values joined by “and” are separate records of one study, mostly repeats; a detail may differ. Numbers after ± are the reported error.
EGFR T790M: Epidermal growth factor receptor (EGFR, Homo sapiens, UniProt P00533, T790M)
EGFR C797S/del746-750/T790M: Epidermal growth factor receptor (EGFR, Homo sapiens, UniProt P00533, C797S/del746-750/T790M)
EGFR L858R/T790M: Epidermal growth factor receptor (EGFR, Homo sapiens, UniProt P00533, L858R/T790M)
EGFR: Epidermal growth factor receptor (EGFR, Homo sapiens, UniProt P00533)
EGFR C797S/L858R/T790M: Epidermal growth factor receptor (EGFR, Homo sapiens, UniProt P00533, C797S/L858R/T790M)

Oc1ncnc2c1sc1sc3c(O)ncnc3c12  IC50 (EGFR T790M; kinase activity, HTRF): 7260 ± 320 nM
O=C(Nc1ccc(-c2noc(C3CC3)n2)c(Cl)c1)c1cccs1  IC50 (EGFR T790M; enzyme activity, inhibitor, ATP luminescence): < 50000 nM
Oc1ccc(Cl)cc1-c1nc(NCCN2CCNCC2)c2ccccc2n1  IC50 (EGFR C797S/del746-750/T790M; kinase activity, inhibitor, Kinase-Glo Plus; 40 min, 30 °C, together with: ATP 10 µM): 89 ± 4 nM
O=C(O[C@@H]1Cc2c(O)cc(O)cc2O[C@@H]1c1cc(O)c(O)c(O)c1)c1cc(O)c(O)c(O)c1  IC50 (EGFR L858R/T790M; kinase activity, inhibitor, Z′-LYTE; together with: 10 µM ATP): 118 ± 0.07 nM
N#Cc1cnc2cc(OCC3CCNCC3)c(F)cc2c1Nc1cc(F)c(OCc2cccc(Cl)n2)cc1Cl  IC50 (EGFR; enzyme activity, inhibitor): 4660 nM
CCN1CCC2(CC1)C/C(=N\NC(=O)Nc1ccccc1)c1ccccc1O2  IC50 (EGFR; enzyme activity, inhibitor): 132 nM
CCCCCCCCCCCCCCOc1c(O)cc(C(=O)O[C@@H]2Cc3c(O)cc(O)cc3O[C@@H]2c2cc(O)c(O)c(O)c2)cc1O  IC50 (EGFR L858R/T790M; kinase activity, inhibitor, Z′-LYTE; together with: 10 µM ATP): 33.33 ± 0.08 nM
COc1ccc(C2=NN(C3=NC(=O)C(=Cc4ccc(O)cc4)S3)C(c3ccc(F)cc3)C2)cc1 (stereo not shown)  IC50 (EGFR; enzyme activity, inhibitor): 262 nM
CC[C@H](C(=O)N1CCCC[C@H]1C(=O)O[C@H](CCc1ccc(OC)c(OC)c1)c1cccc(OCC(=O)NCCC(=O)N2CCN(CCCOc3cc4c(Nc5ccc(F)c(Cl)c5)ncnc4cc3OC)CC2)c1)c1cc(OC)c(OC)c(OC)c1  IC50 (EGFR; enzyme activity, inhibitor, TR-FRET): 0.38 nM
CC(=NN=c1sc(C(=O)c2ccccc2)nn1-c1ccccc1)c1ccc(S(=O)(=O)N2CCC(C)CC2)cc1  IC50 (EGFR; enzyme activity, inhibitor): 1310 nM
N=c1c2sc3sc4c(=N)n(-c5ccccc5)c(=S)[nH]c4c3c2[nH]c(=S)n1-c1ccccc1  IC50 (EGFR; enzyme activity, inhibitor, TR-FRET): 2770 nM
C=CC(=O)N1CCC[C@@H](n2nc(-c3ccccc3)c3c(N)ncnc32)C1  IC50 (EGFR; enzyme activity, inhibitor; with preincubation): 136 nM
COc1ccc2c(c1)c(C)c1c(-c3ccccc3)c(S(=O)(=O)c3ccc(C)cc3)c3ccccc3n12  IC50 (EGFR; enzyme activity, inhibitor, ADP detection): 440 nM
COCC1CN(C2CCN(c3cc(OC)c(Nc4ncc(Br)c(Nc5ccc6c(c5P(C)(C)=O)OCCO6)n4)cc3C)CC2)C1  IC50 (EGFR C797S/del746-750/T790M; kinase activity, TR-FRET; together with: ATP at Km): < 1.5 nM
C#Cc1cccc(Nc2ncnc3cc(OC)c(OCCCN4CCOCC4)cc23)c1  IC50 (Epidermal growth factor receptor (EGFR, Homo sapiens, UniProt P00533, del746-750); inhibitor; 30 min, room temperature, together with: 80.8 µM ATP): 1.23 nM and 1.2 nM
C=CC(=O)N1CCC[C@@H](n2nc(-c3cnc4[nH]ccc4c3)c3c(N)ncnc32)C1  IC50 (EGFR L858R/T790M; cell-free assay): 2.7 nM
O=C(NCCN1CCN(C(=O)c2cc(-c3ccc(Cl)cc3)nc3ccccc23)CC1)c1cc(-c2ccc(Cl)cc2)nc2ccccc12  IC50 (EGFR C797S/L858R/T790M; enzyme activity, inhibitor): > 10000 nM
N#Cc1ccc(O)c(-c2nc(NCCN3CCNCC3)c3ccccc3n2)c1  IC50 (EGFR C797S/del746-750/T790M; kinase activity, inhibitor, Kinase-Glo Plus; 40 min, 30 °C, together with: ATP 10 µM): 220 ± 2 nM
C=CC(=O)N1CCC[C@@H](n2nc(-c3cccc(C(F)(F)F)c3)c3c(N)ncnc32)C1  IC50 (Epidermal growth factor receptor (EGFR, Homo sapiens, UniProt P00533, L858R); enzyme activity, inhibitor; with preincubation): 27 nM
CC(C)(C)c1nc(-c2ccc(NC(=O)c3cccs3)cc2Cl)no1  IC50 (EGFR; enzyme activity, inhibitor, ATP luminescence): 16000 nM
CN(C(=O)c1ccn2ncc(-c3ccc(C(N)=O)cc3)c2c1)c1ccc(C#N)cn1  IC50 (EGFR; enzyme activity, inhibitor): > 10000 nM
C=CC(=O)Nc1cc(Nc2nccc(-c3c(-c4cccc(OC)c4)n(C)c4ccccc34)n2)c(OC)cc1N(C)CCN(C)C  IC50 (EGFR L858R/T790M; enzyme activity, inhibitor): 6 nM
COc1cc(N2CCN(C)CC2)ccc1Nc1ncc(Cl)c(Nc2ccccc2NS(=O)(=O)C2CC2)n1  IC50 (EGFR C797S/L858R/T790M; enzyme activity, inhibitor, ELISA): 7.39 nM
Cc1nc(-c2ccc(NC(=O)c3cccs3)cc2Cl)no1  IC50 (EGFR T790M; enzyme activity, inhibitor, ATP luminescence): < 50000 nM
O=C1N=C(N2N=C(c3cccs3)CC2c2ccc(F)cc2)SC1=Cc1ccc(O)cc1 (stereo not shown)  IC50 (EGFR; enzyme activity, inhibitor): 171 nM

Repeated from above:
O=C(Nc1ccc(-c2noc(C3CC3)n2)c(Cl)c1)c1cccs1  IC50 (EGFR T790M; enzyme activity, inhibitor, ATP luminescence): < 50000 nM
Oc1ccc(Cl)cc1-c1nc(NCCN2CCNCC2)c2ccccc2n1  IC50 (EGFR C797S/del746-750/T790M; kinase activity, inhibitor, Kinase-Glo Plus; 40 min, 30 °C, together with: ATP 10 µM): 89 ± 4 nM
